Published values collected from several papers.
Lines come from different studies, so protocols differ. ± gives the spread as reported.

| Structure (SMILES) | assay | system | conditions | scale | endpoint | result |
| --- | --- | --- | --- | --- | --- | --- |
| CC[C@@H](C)N([11CH3])C(=O)c1nc(-c2ccccc2Cl)c2ccccc2n1 | – | rhesus monkey male, plasma | intravenous, TSPO preblock | – | time to 50% parent radioligand in plasma | 9.57 min |
| C[C@H](NC(=O)[C@H](C)NC(=O)[C@H](C)NC(=O)[C@H](CCCNC(=N)N)NC(=O)[C@H](CCCNC(=N)N)NC(=O)[C@H](C)NC(=O)[C@H](C)NC(=O)[C@H](C)NC(=O)[C@H](C)NC(=O)[C@H](CCCNC(=N)N)NC(=O)[C@H](CCCNC(=N)N)NC(=O)[C@H](C)NC(=O)[C@H](C)NC(=O)[C@H](C)NC(=O)[C@H](C)NC(=O)[C@H](CCCNC(=N)N)NC(=O)[C@H](CCCNC(=N)N)NC(=O)c1ccc2c(c1)C(=O)OC21c2ccc(O)cc2Oc2cc(O)ccc21)C(=O)N[C@@H](C)C(=O)N[C@@H](CCCNC(=N)N)C(=O)N[C@@H](CCCNC(=N)N)C(=O)O | – | bovine cartilage explants | 30 µM, 24 h, with: 1 x PBS | – | retained fraction | ~77% |
| COc1c(Cl)ccc(Cl)c1C(=O)OC[C@H]1OC(O)[C@H](O)[C@@H]1O (stereo partly drawn) | HPLC | water | 1 days | – | dicamba formed | 1% |
| CCN(CC)c1ccc2c(-c3ccc(S(=O)(=O)NCCNC(=O)CN4CCN(CC(=O)[O-])CCN(CC(=O)O)CCN(CC(=O)[O-])CC4)cc3S(=O)(=O)[O-])c3ccc(=[N+](CC)CC)cc-3oc2c1.[64Cu+2] | radio-HPLC | athymic nude mice, feces | 120 min post-injection | – | metabolic degradation | > 65% |
| Cc1cc(O)cc(O)c1C(=O)c1c2c3c(c(O)cc(C)c3oc1=O)C(=O)c1c(O)cc(O)cc1-2 | – | mouse, bone marrow | intraperitoneal, 100 mg/kg, 30 h | – | micronucleated PCEs per 1000 PCEs | 12.5 ± 5.26 |
| CC(C)c1cnc(-c2cc(Cl)ccc2F)cc1Nc1ccncc1C(=O)NC(CO)CO | measured: Nausea | solid tumour patients | oral, dose not given, phase I monotherapy | – | treatment-related adverse events | 16.7% |
| Nc1nccc(-c2cn(C3CC3)c3ccccc23)n1 | radio-HPLC, co-eluting peaks pooled | human male, urine | oral, 110 mg, 0 to 96 h, sample holds 4.16% dose | relative to: sample radioactivity | share of radioactivity | 0.42% |
| COc1cc(OC)cc(C2=C3C(C)=C(I)C(C)=[N+]3[B-](F)(F)n3c(/C=C/c4cccs4)c(I)c(C)c32)c1 | – | DMSO | – | – | Stokes shift | 453 cm⁻¹ |
| O=C(Nc1ccccc1NC(=O)c1cccc(Cl)c1)c1cccc(Cl)c1 | – | culture medium | – | – | precipitation concentration | > 125 µM |
| Cn1c(=O)oc2ccc(-c3ccc(CC(C#N)NC(=O)C4CNCCCO4)c(F)c3)cc21 (stereo not drawn) | – | human | oral, 10 mg once daily, TEAE, multiple ascending dose | – | urine WBC positive incidence | 0% |
| N=C(N)NCCC[C@@H]1NC(=O)[C@H](Cc2c[nH]c3ccccc23)NC(=O)[C@@H](CC2CCCCC2)NC(=O)[C@@H]2CCCN2C(=O)[C@@H](NC(=O)CCc2ccccc2)CCCNC1=O | – | C57BL/6J mice, spinal cord | intraperitoneal, 1 mg/kg, two-compartment model | – | apparent distributional clearance | 2.59 ng/(min·ng/g) |
| O=C(CCc1ccc(CNC(C(=O)O)C2CCCCC2)cn1)NO (stereo not drawn) | – | healthy male humans, plasma | oral, 60 mg, single dose, geometric mean | – | AUC(0-t) | 280 ng·h/mL |
| CN1C(=O)[C@@H](Cc2ccc(O)c(I)c2)NC(=O)CNC(=O)[C@H](Cc2ccc3ccccc3c2)NC(=O)[C@H](CCCNC(=N)N)NC(=O)[C@H]1CCCNC(=O)c1ccc(CNC(=O)CN2CCN(CC(=O)O)CCN(CC(=O)O)CC2)cc1 [fluorine-18 labelled] | – | CB17 SCID mouse, female, Daudi lymphoma xenograft | intravenous, 300 kBq, 1 h | relative to: tumour over muscle | tissue ratio | 29.2 ± 4 |
| COCCOCCOCCOCCC(=O)NCc1cc(CNC(=O)CCOCCOCCOCCOC)cc(-c2cc3cc4nc(c(-c5ccc(CCC(=O)O)cc5)c5[nH]c(cc6nc(c(OC)c2[nH]3)CC6(C)C)cc5-c2cc(CNC(=O)CCOCCOCCOCCOC)cc(CNC(=O)CCOCCOCCOCCOC)c2)CC4(C)C)c1 | – | DMF | room temperature | – | Qy absorption FWHM | 21 nm |
| COc1cc2c(cc1OC)CN(CCCCn1ccc3cc(OCC[18F])ccc31)C2 | – | male ICR mice | intravenous, 280 kBq, 120 min post-injection | – | pancreas uptake | 43.4 ± 6.87 %ID/g |
| COC(=O)c1ccc2c(c1)NC(=O)/C2=C(\Nc1ccc2c(c1)CCN2C(=O)CN1CCOCC1)c1ccccc1 | – | beagle dog, blood | intravenous, 2 mg/kg | – | Vd | 5.54 L/kg |
| CCc1cc(Nc2nc(-c3ccc(-n4cnc(C)c4)c(F)c3)cs2)c(C)cc1C | – | human, both sexes, plasma | oral, 100 mg, day 1, multiple dose, geometric mean | – | apparent terminal volume (Vz/F) | 568000 mL |
| C[N+](C)(C)C[C@@H](O)CC(=O)O.O=C([O-])[C@@H](O)Cc1ccccc1 | thermogravimetric analysis | – | 5% mass loss, nitrogen | – | decomposition temperature | 82.4 °C |
| Nc1ncnc2c1nc(-n1nnc3c1CCC1C(CO)C1CC3)n2C1OC(CO)C(O)C1O (mixture of isomers) | fluorescence lifetime | methanol | – | – | fractional contribution τ3 | 0.07% |
| CC12CC(c3ccc(S(C)(=O)=O)cc3)C3=C4CCC(=O)C=C4CCC3C1CCC2(O)C(F)(F)C(F)(F)F (stereo not drawn) | – | human, plasma | oral, 4 mg, single dose alone, geometric mean | – | apparent oral clearance | 12.3 L/h |
| CSCC(NC(=O)c1cc(Cl)ccc1Cl)C(=O)NC(CC(C)C)B(O)O (stereo not drawn) | – | Sprague-Dawley rat, both sexes | oral, 0.30 mg/kg of prodrug | relative to: dose | cumulative urinary excretion | ≤ 0.888% |

| Structure (SMILES) | assay | system | conditions | scale | endpoint | result |
| --- | --- | --- | --- | --- | --- | --- |
| CCCC(CCC)NC(=O)c1ccc(OC)c(OC2OC(C(=O)O)C(O)C(O)C2O)c1 (stereo not drawn) | LC-MS extracted ion chromatogram | Sprague-Dawley rat, male and female, pooled plasma | oral, 200 mg/kg, 1 h | – | peak area | 698000 cps |
| COc1cc(NC(C)=O)c2c(c1O)-c1c(OC)c(OC)cc3c1C(C2)N(C)CC3 (stereo not drawn) | – | rat kidney homogenate | 100 µg/mL, 40 d, -20 °C, long-term storage | – | remaining compound | 90.6 ± 2.1% |
| [11CH3]c1ccc2nc(C3CCC3)n(-c3ccc4[nH]ncc4c3)c2n1 | – | standard human adult, adrenals | – | – | absorbed radiation dose | 3.8 µSv/MBq |
| C=C1C[C@@]23CC[C@H]4[C@@](C)(CCC[C@@]4(C)C(=O)O[C@@H]4O[C@H](CO)[C@@H](O)[C@H](O)[C@H]4O)[C@@H]2CC[C@]1(O[C@@H]1O[C@H](CO[C@H]2O[C@H](CO)[C@@H](O)[C@H](O)[C@H]2O)[C@@H](O)[C@H](O)[C@H]1O[C@@H]1O[C@H](CO)[C@@H](O)[C@H](O)[C@H]1O)C3 | thermogravimetric analysis | – | second mass loss stage | – | onset temperature | 280 to 290 °C |
| NCCCC[C@H](NC(=O)[C@@H]1CCCN1C(=O)[C@@H]1CSSC[C@H](NC(=O)CNC(=O)CNC(=O)CN)C(=O)N[C@@H](Cc2ccc(O)cc2)C(=O)N[C@@H](Cc2ccccc2)C(=O)N[C@@H](CCC(N)=O)C(=O)N[C@@H](CC(N)=O)C(=O)N1)C(=O)NCC(N)=O | – | male Sprague Dawley rats | iv, single dose | – | LOAEL (paleness, lethargy) | 0.15 mg/kg |
| Cc1ccc(-c2ccc(-c3cc4sccc4o3)cn2)nc1 | – | aqueous HEPES buffer | pH 7.4, zinc(II) complex | – | fluorescence lifetime | 3.29 ns |
| C=CC(=C)CC[C@]1(C)[C@H](C)CC[C@@]23C(=C[C@H](OC(=O)C(C)C)C[C@@H]12)[C@@H](OC(C)=O)O[C@H]3OC(C)=O | haemolysis | – | 20 µM | – | haemolysis | 0% |
| COC[C@@H](CC(C)C)NC(=O)c1ccc(C)c(CO)c1 | LC-MS | Sprague-Dawley rat, both sexes, rat liver microsomes | 10 µM of parent drug, 20 min, pH 7.4, with: NADPH | relative to: parent drug at time zero | metabolite peak area | 0.7% |
| CCCCCCCCCCCCCCCC(=O)N[C@@H](CCCCN)C(=O)N[C@@H](CCCCN)C(=O)N[C@@H](CO)C(=O)N[C@@H](CCCNC(=N)N)C(=O)N[C@@H](C)C(=O)N[C@@H](CC(C)C)C(=O)N[C@@H](Cc1ccccc1)C(N)=O | – | cynomolgus monkey, male | 30 mg/kg, day 5 | – | activated partial thromboplastin time | 33.7 ± 6.5 s |
| CCOc1ccc2c(c1)C(C)CC(C)(C)N2 (stereo not drawn) | LC-MS/MS | Holstein cattle, subcutaneous fat | oral in feed, 50 mg/kg complete feed ethoxyquin, 42 days | – | highest tissue residue | 8.7 ng/g |
| CCCC[C@H](NC(=O)[C@H](CC(C)C)N(C)C(=O)CNC(=O)[C@@H](NC(=O)[C@H](Cc1ccccc1)NC(=O)[C@H](CCCCN)NC(=O)[C@@H](N)CC(=O)O)C(C)C)C(N)=O | – | anaesthetised Sinclair minipig | sublingual, 5 mg/kg, lyophilised tablet | relative to: baseline | heart rate change | -1.56 ± 3.26% |
| C=CC(=O)Nc1cc(Nc2nccc(-c3cn(C4CC4)c4ccccc34)n2)c(OC)cc1NC | LC-RAM/HRMS | human male, plasma | oral, 110 mg, 48 h | relative to: total radioactivity | share of radioactivity | 25% |
| COc1cc(-c2nc3ccccc3s2)cc(CN(C)Cc2ccccn2)c1O | UV-vis spectrophotometric titration | MeOH-water, MeOH up to 20% | 50 µM, 0.1 M NaCl, HL to L- | – | pKa4 | 10 |
| O=C(NCCCN(CCCCN(CCCNC(=O)c1cccc(=O)n1[O-])C(=O)c1cccc(=O)n1[O-])C(=O)c1cccc(=O)n1[O-])c1cccc(=O)n1[O-].[89Zr+4] | radio-TLC | PBS | 1 h, pH 7.4, 37 °C, with: Gd^3+ 10-fold excess | – | intact complex | 98.2 ± 2.6% |
| COC(=O)C(c1ccccc1Cl)N1CCC(SCC(=O)c2cccc(OC)c2)C(=CC(=O)O)C1 (mixture of isomers) | HPLC-MS/MS | feline citrate plasma | 100 ng/mL, 6 h, 4 °C, storage stability | – | deviation from nominal | 3% |
| CCOC(=O)c1[nH]c(C)c(/C=C/c2c(I)c(C)c3n2[B-](F)(F)[N+]2=C(C)C(I)=C(C)C2=C3c2cc(OC)cc(OC)c2)c1C | – | THF | – | – | Stokes shift | 544 cm⁻¹ |
| Cc1ccc(OCC(=O)O)cc1 | – | Sprague-Dawley rat, male, plasma | oral gavage, 100 mg/kg of parent drug | – | Tmax | 1.5 h |
| COc1ccc(-c2ccn(CC[C@](C)(C(=O)NO)S(C)(=O)=O)c(=O)c2)c(F)c1 | – | CF-1 mouse, female | subcutaneous, 300 mg/kg | – | Vss | 2.53 ± 0.39 L/kg |
| CC(C)C[C@@H]1NC(=O)[C@@H](Cc2ccccc2)NC(=O)[C@H](CCN)NC(=O)[C@@H](NC(=O)[C@H](CN)NC(=O)[C@@H](NC(=O)C(CCN)C2CCCCC2)[C@@H](C)O)CCNC(=O)[C@H]([C@@H](C)O)NC(=O)[C@H](CCN)NC(=O)[C@H](CCN)NC1=O (stereo partly drawn) | – | CD-1 mouse male, kidney | subcutaneous, 17.2 mg/kg, 4 h | – | tissue concentration | 309000 ng/g |
| CC(C)(O)c1ncc([S@](N)(=O)=NC(=O)Nc2c3c(cc4c2CCC4)CCC3)s1 | – | healthy human volunteers, plasma | oral, 30 mg once daily, day 14, capsule formulation | – | dose-normalised AUC(0-tau) | 980 ng·h/mL/mg |
| CCCC[C@@H]1NC(=O)[C@@H](NC(=O)[C@H](CCC(=O)O)NC(=O)CNC(=O)CN2CCN(CC(=O)O)CCN(CC(=O)O)CCN(CC(=O)O)CC2)CCCCNC(=O)C[C@@H](C(N)=O)NC(=O)[C@H](C(C)C)NC(=O)[C@@H]2CCCN2C(=O)[C@H](CCCNC(=N)N)NC(=O)CNC(=O)[C@H](Cc2c[nH]c3ccccc23)NC(=O)[C@H](CCCNC(=N)N)NC(=O)[C@@H](Cc2ccccc2)NC(=O)[C@H](Cc2c[nH]cn2)NC(=O)[C@H](CCC(=O)O)NC1=O [gallium-67 labelled] | – | C57 mice, B16/F10 lung metastases, brain | intravenous, 0.037 MBq/mouse, 2 h | – | tissue uptake | 0.03 ± 0.02 %ID/g |
